Assay results collected from several papers.
Protocols differ between the studies behind these lines. In brackets after ≈: the same amount, converted by molar mass.
Organism: Bacillus subtilis

| SMILES | assay | system | conditions | MIC |
| --- | --- | --- | --- | --- |
| C#CCOc1ccc(CN[C@@]2(C)C[C@H](O[C@H]3[C@H](Oc4c5cc6cc4Oc4ccc(cc4Cl)[C@@H](O)[C@@H](NC(=O)[C@@H](CC(C)C)NC)C(=O)N[C@@H](CC(N)=O)C(=O)N[C@H]6C(=O)N[C@H]4C(=O)N[C@H](C(=O)N[C@H](C(=O)N[C@@H](CCCNC(=N)N)C(N)=O)c6cc(O)cc(O)c6-c6cc4ccc6O)[C@H](O)c4ccc(c(Cl)c4)O5)O[C@H](CO)[C@@H](O)[C@@H]3O)O[C@@H](C)[C@H]2O)cc1OC | broth microdilution | 168, cation-adjusted Mueller-Hinton broth | 20 to 24 h, 37 °C, 0.002% polysorbate 80 | 0.016 µg/mL (≈ 0.009 µM) |
| CC[C@H]1OC(=O)[C@H](C)[C@@H](OC(=O)Cc2c(F)cccc2F)[C@H](C)[C@@H](O[C@@H]2O[C@H](C)C[C@H](N(C)C)[C@H]2O)[C@](C)(OC)C[C@@H](C)C(=O)[C@H](C)[C@@H](O)[C@]1(C)O | microbial growth | DSM402 | – | 1 µg/mL (≈ 1.34 µM) |
| CCOc1c(NC(=O)c2ccc(NC(=O)c3ccc(NC(=O)[C@H](Cc4c[nH]nn4)NC(=O)c4ccc(NC(=O)/C(C)=C/c5ccc(O)cc5)cc4)cc3)c(OC)c2O)ccc(C(=O)O)c1O | broth microdilution | DSM 10 | – | 0.5 µg/mL (≈ 0.556 µM) |
| C#CCNC(=O)[C@H]1NC(=O)[C@H]2NC(=O)[C@H](NC(=O)[C@@H]3NC(=O)[C@H](CC(N)=O)NC(=O)[C@H](NC(=O)[C@@H](CC(C)C)NC)[C@H](O)c4ccc(c(Cl)c4)Oc4cc3cc(c4O[C@@H]3O[C@H](CO)[C@@H](O)[C@H](O)[C@H]3O[C@H]3C[C@](C)(N)[C@H](O)[C@H](C)O3)Oc3ccc(cc3Cl)[C@H]2O)c2ccc(O)c(c2)-c2c(O)cc(O)cc21 | broth microdilution | 168, cation-adjusted Mueller-Hinton broth | 20 to 24 h, 37 °C, 0.002% polysorbate 80 | 0.125 µg/mL (≈ 0.0841 µM) |
| CC[C@H]1OC(=O)[C@H](C)[C@@H](OC(=O)Cc2ccc3c(c2)OCO3)[C@H](C)[C@@H](O[C@@H]2O[C@H](C)C[C@H](N(C)C)[C@H]2O)[C@](C)(OC)C[C@@H](C)C(=O)[C@H](C)[C@@H](O)[C@]1(C)O | microbial growth | DSM402 | – | 0.5 µg/mL (≈ 0.665 µM) |
| COc1nc(C(=O)Nc2ccc(C(=O)O)c(O)c2OC)ccc1NC(=O)c1ccc(NC(=O)[C@H](Cc2c[nH]nn2)NC(=O)c2ccc(NC(=O)/C(C)=C/c3ccc(O)cc3)cc2)cc1 | broth microdilution | DSM 10 | – | 0.5 µg/mL (≈ 0.575 µM) |
| CN[C@H](CC(C)C)C(=O)N[C@H]1C(=O)N[C@@H](CC(N)=O)C(=O)N[C@H]2C(=O)N[C@H]3C(=O)N[C@H](C(=O)N[C@H](C(=O)NCc4cn(CC(=O)N[C@H](C(=O)N[C@@H](CCN)C(=O)N[C@H]5CCNC(=O)[C@H]([C@@H](C)O)NC(=O)[C@H](CCN)NC(=O)[C@H](CCN)NC(=O)[C@H](CC(C)C)NC(=O)[C@@H](CC(C)C)NC(=O)[C@H](CCN)NC5=O)[C@@H](C)O)nn4)c4cc(O)cc(O)c4-c4cc3ccc4O)[C@H](O)c3ccc(c(Cl)c3)Oc3cc2cc(c3O[C@@H]2O[C@H](CO)[C@@H](O)[C@H](O)[C@H]2O[C@H]2C[C@](C)(N)[C@H](O)[C@H](C)O2)Oc2ccc(cc2Cl)[C@H]1O | broth microdilution | 168, cation-adjusted Mueller-Hinton broth | 20 to 24 h, 37 °C, 0.002% polysorbate 80 | 0.5 µg/mL (≈ 0.2 µM) |
| CO[C@H]1O[C@H](COC(c2ccccc2)(c2ccccc2)c2ccccc2)[C@@H](OS(=O)(=O)c2ccccc2)[C@H](OS(=O)(=O)c2ccccc2)[C@H]1OS(=O)(=O)c1ccccc1 | microbial growth, broth dilution | – | – | 1.5 µg/mL (≈ 1.75 µM) |
| CCOc1c(NC(=O)c2ccc(NC(=O)c3ccc(NC(=O)[C@H](Cc4c[nH]nn4)NC(=O)c4ccc(NC(=O)/C(C)=C/c5ccc(O)cc5)cc4)cc3)c(OCC)c2O)ccc(C(=O)O)c1O | broth microdilution | DSM 10 | – | 0.031 µg/mL (≈ 0.034 µM) |
| CC[C@H]1OC(=O)[C@H](C)[C@@H](OC(=O)Cc2ccccc2Cl)[C@H](C)[C@@H](O[C@@H]2O[C@H](C)C[C@H](N(C)C)[C@H]2O)[C@](C)(OC)C[C@@H](C)C(=O)[C@H](C)[C@@H](O)[C@]1(C)O | microbial growth | DSM402 | – | 2 µg/mL (≈ 2.69 µM) |

Some of these lines once more:
| SMILES | assay | system | conditions | MIC |
| --- | --- | --- | --- | --- |
| CCOc1c(NC(=O)c2ccc(NC(=O)c3ccc(NC(=O)[C@H](Cc4c[nH]nn4)NC(=O)c4ccc(NC(=O)/C(C)=C/c5ccc(O)cc5)cc4)cc3)c(OC)c2O)ccc(C(=O)O)c1O | broth microdilution | DSM 10 | – | 0.5 µg/mL (≈ 0.556 µM) |
| C#CCNC(=O)[C@H]1NC(=O)[C@H]2NC(=O)[C@H](NC(=O)[C@@H]3NC(=O)[C@H](CC(N)=O)NC(=O)[C@H](NC(=O)[C@@H](CC(C)C)NC)[C@H](O)c4ccc(c(Cl)c4)Oc4cc3cc(c4O[C@@H]3O[C@H](CO)[C@@H](O)[C@H](O)[C@H]3O[C@H]3C[C@](C)(N)[C@H](O)[C@H](C)O3)Oc3ccc(cc3Cl)[C@H]2O)c2ccc(O)c(c2)-c2c(O)cc(O)cc21 | broth microdilution | 168, cation-adjusted Mueller-Hinton broth | 20 to 24 h, 37 °C, 0.002% polysorbate 80 | 0.125 µg/mL (≈ 0.0841 µM) |
